Measurements collected from several papers.
Each numbered part is a random draw from the data of one study; scales do not carry over between parts. Substitutions count along the parent as printed.

Series 1 — method: EMSA with sequencing; molecule type: double-stranded DNA, one strand shown; medium: in vitro; concentration: 10 and 20 nM; relative to: negative control set to 0; direction: higher = stronger binding
Target: Hepatocyte nuclear factor 3-alpha (Foxa1, Mus musculus, UniProt P35582, residues 1-468, full length assumed)
Setting: whole designed probe, mean of two concentrations, ends assumed
Target sequence (chain): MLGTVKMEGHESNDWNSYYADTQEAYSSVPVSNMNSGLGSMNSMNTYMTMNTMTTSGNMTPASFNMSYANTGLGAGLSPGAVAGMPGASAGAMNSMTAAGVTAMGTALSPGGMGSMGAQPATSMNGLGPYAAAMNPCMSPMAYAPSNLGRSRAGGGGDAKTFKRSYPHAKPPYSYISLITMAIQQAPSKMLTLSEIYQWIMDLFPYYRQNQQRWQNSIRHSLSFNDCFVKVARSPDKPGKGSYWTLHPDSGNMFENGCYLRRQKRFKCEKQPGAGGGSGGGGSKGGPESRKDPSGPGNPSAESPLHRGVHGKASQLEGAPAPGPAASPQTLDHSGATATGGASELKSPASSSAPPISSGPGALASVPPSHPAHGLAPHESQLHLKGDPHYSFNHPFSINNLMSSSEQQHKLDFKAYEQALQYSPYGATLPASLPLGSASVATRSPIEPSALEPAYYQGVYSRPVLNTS
Oligonucleotide	normalised bound fraction [ratio]
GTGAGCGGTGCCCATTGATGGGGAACATCTTCCCCCTCTTCCTTGCCCCACCAGCTCACCTTCCCGGGTTATTTGCACAAAGGAAAATAAATAAAGCCGGCATTCGTTAACCCTCTTCTGGCGCAAACTGCTGTTTGCTCTGCATGAATCATGGTCCTTACGCGACGCCAGGCTCCGGGAGAGCAAAGCACCGTGTCAGGCGCATGATCCGGGCTCGCCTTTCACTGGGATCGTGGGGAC	0.371
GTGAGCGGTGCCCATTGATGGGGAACATGAAAAAGGATAGGAAGAAAGGGAGGAAGAGGAGGGGGACAGAGAGGAAGTAGGAAGGGAGAGCGATAAAGGAAGGAAAGAAGATAAATTCTGTAAACAGCCCCACCCAGACTGGCATAGCACAACCTGGAATGGACTATTTAAGTCCCAAACATGATGTTAAGAGAATAATTCAGATTTCTAGGAATGCACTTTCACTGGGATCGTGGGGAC	-0.00852
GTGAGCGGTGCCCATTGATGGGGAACAACTAACCCAGTCCCAGGAGAACTGCATTAATCCCTTTGTGAGGGCGAAGTCCCTATGACTCACCTCTTAAAGGTCCTATTACCTCTCCATACAGATGACATTGGCAATTAAATTTCAACATGAGTTTTGGTAGAGACAAACCACATCCAAACCATAGCAATAGTAAAGGTGTCCCCTGCTCCCCTCCTCCACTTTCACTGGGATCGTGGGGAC	-0.0682
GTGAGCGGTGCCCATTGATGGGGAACCAATGGGGTAGGTCAGCCCCAGTGAACTCTCAAATGACCACTGAAGGAGGAAGTGAGTGCAGAGTGTGATACCACTCACATCCCAGCCCAGACTGTTTGCTCAGTTCTTCCTGCACTGGGAGGAGTGTTGCAATTCGAGATAACACCCCTTCTCATGGCTTCAGGCATCACCTATCTCCTCTAGGCTGCGCTCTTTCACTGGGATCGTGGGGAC	0.177
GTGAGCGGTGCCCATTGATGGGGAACATCTTCCCCCTCTTCCTTGCCCCACCAGCTCACCTACGGGGGTTATTTGCAGATAGGAAAATAAATAAAGCCGGCATTCGTTAACCCTCTTCACGCGCATACTGCTGTTTGCTCTGGATGAATCATGGTCCTTTGGCGACGCCAGGCTCCGGGAGAGCAAAGCACCGTGTCAGGGCCATGATCCGGGCTCGCCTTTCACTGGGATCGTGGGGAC	0.335
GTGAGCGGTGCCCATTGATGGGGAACTGGCAGAGCCAAGTTTACCAGTGTGTTGGCAGGAGTTACTGTTCCTTCTTGTGTGATTTCTTTGAGGACATTGCACAGATTATACAGAGAGTGTAATCTTAGCTGTTGATTTAACTAAACACTGTTTTTTGTTCCCCGTCTCTCACAGCCATGGTAAATAGCCTAATATTTAAGCTCAGAGGCTTTGATGTGATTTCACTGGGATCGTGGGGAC	0.14
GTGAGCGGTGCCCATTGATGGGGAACCAAGTTTGTGGTCCAGGAGCAACAGGTTATGCCATACAGCCTAGGTGTGTAGTAGGCTACACACCGTCTATGTTTGTGTTGTACACTCTTTGTGCAAACATTGTTGATGAAACCATGACTCATTCTTCTCAGAACATACCCCTGTTGTTAAGCGATACATGACTGTACTTTTTTTAAAAAGTCCAAGGATATATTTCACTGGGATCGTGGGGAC	0.409
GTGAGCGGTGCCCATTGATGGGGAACATCTTCCCCCTCTTCCTTGCCCCACCAGCTCACCTACGGGGGTTATTTGCAGATAGGAAAATAAATAAAGCCGGCATTCGTTAACCCTCTTCTGGCGCAAACTGCTGTTTGCTCTGCATCTAACATGGTCCTTACGCGACGCCAGGCTCCGGGAGAGCAAAGCACCGTGTCAGGCGCATGATCCGGGCTCGCCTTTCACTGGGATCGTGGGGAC	0.348

Series 2 — target: CCNA1, cyclin fold, Cln2 fusion (human); method: yeast growth competition, sequencing; medium: yeast; setting: weak parent motif; relative to: not given; direction: higher = stronger binding
Parent: SLBP docking peptide (human); ARYKRKLLINDFG
Change	normalised enrichment score
L8S	0.102
L8D	0.0673
L7Y	0.492
K6M	0.0371
F12V	0.256
K4N	0.363
A1K	0.311
D11C	0.029
Y3E	0.378
D11S	0.179
K4Y	0.32
D11P	0.309
F12D	0.246
K6V	0.608
L7H	0.189
K6D	0.224

Series 3 — method: DHFR PCA, deep sequencing; medium: yeast; added: (+)-ABA 0.39 µM; relative to: wild-type fitted maximum; direction: higher = stronger binding
Target: ABI1, truncated, D143A, DHFR fusion (Arabidopsis thaliana)
Setting: methotrexate growth selection, single substitutions
Parent: PYL1, truncated, DHFR fusion (Arabidopsis thaliana); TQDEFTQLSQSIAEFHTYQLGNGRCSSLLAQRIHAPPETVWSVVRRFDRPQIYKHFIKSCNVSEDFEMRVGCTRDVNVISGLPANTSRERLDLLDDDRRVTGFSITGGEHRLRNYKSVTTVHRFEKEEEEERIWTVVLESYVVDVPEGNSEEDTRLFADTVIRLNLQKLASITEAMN
Change	relative binding score
R132D	85.2%
D95Q	-11.5%
I52E	31.3%
E128W	8.84%
Q167I	4.04%
E152T	17.1%
S150K	5.54%
G71W	-15%
F157L	9.51%
V44I	28.1%
W41N	-2.17%
R123G	79.3%
V121Q	-3.54%
G107V	-7.76%
A13R	48.5%
W41I	-10.5%
V43C	4.41%
T39H	15.9%

Series 4 — method: RNA Bind-n-Seq; molecule type: RNA; medium: in vitro; concentration: 1 µM; setting: whole 134-nt RNA, ends assumed; added: 150 mM KCl; relative to: input library; direction: higher = stronger binding
Target: Ras GTPase-activating protein-binding protein 1, RRM domain (G3BP1, Homo sapiens, UniProt Q13283)
Chain of UniProt Q13283 (whole entry, looked up): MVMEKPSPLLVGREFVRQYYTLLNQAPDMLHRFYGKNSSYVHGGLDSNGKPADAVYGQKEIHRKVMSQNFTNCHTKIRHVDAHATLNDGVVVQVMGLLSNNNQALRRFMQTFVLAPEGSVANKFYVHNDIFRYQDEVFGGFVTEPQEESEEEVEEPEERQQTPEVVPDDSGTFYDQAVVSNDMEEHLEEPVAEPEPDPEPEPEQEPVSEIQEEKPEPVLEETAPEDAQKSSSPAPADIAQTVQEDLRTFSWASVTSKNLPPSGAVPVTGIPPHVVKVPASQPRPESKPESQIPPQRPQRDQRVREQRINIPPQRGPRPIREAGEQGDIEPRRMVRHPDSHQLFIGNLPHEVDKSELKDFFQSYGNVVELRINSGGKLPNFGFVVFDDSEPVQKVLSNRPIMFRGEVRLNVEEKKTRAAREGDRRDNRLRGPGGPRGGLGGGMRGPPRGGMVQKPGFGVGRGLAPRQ
Oligonucleotide	log2 enrichment
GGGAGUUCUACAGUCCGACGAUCCUCAAGUCCUGUGCUACACAUCGUAUGUACCGAAUCGGGGUUGGUUGGUUGGGAAAGUAUUAUGUUACGCCGUUCGGAUCUGCACUUCCAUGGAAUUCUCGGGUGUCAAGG	-0.279
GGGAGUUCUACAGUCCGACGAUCACCAUGCAGGUGGGCAUCUUUGGGAAGUGGGGCAAGGGGGGGAUAGGGAGGGGGGUAACACGUUGGGAACAGGUGGUCCCAGGUCGUUUCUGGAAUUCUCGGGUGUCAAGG	0.995
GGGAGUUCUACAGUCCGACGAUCAAGUCCUGUGCUACACAUCGUAUGUACCGAAUCGGGUUUUUUUGGGUGGGAAAGGGAAAGUAUUAUGUUACGCCGUUCGGAUCUGCACUUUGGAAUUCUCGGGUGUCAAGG	0.413
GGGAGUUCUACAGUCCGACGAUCUCCUGUGCUACACAUCGUAUGUACCGAAUCGGGGUUUUUUGGUUUUUUGGGGUUUUUUGGAAAGUAUUAUGUUACGCCGUUCGGAUCUGCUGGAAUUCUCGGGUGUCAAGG	-0.146
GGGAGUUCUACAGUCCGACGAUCGCAGGAAGUAAAAACAAAUGGAAAUGCUUCUGAUAGUGGCAGGGGUGGGGGUUGCUAAGGAAAGGGUGGGAUGGGAGUGGGUAAAGAGUUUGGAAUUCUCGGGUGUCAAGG	0.946
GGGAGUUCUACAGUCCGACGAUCAGUCCUGUGCUACACAUCGUAUGUACCGAAUCGGGGCCCCCGGCCCCCGGCCCCCGGGAAAGUAUUAUGUUACGCCGUUCGGAUCUGCACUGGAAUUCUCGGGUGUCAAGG	-0.37
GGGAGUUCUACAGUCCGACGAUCUGGCCCUGGUGGCAUGCGGGGAGGAAGAGGUGGCCUCAUGGAUCGUGGUGGUCCCGGUGGAAUGUUCAGAGGUGGACGUGGUGGAGACAGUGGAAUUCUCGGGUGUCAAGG	2.21
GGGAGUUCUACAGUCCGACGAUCCACAGACAACACGCACCCACACAGACACAGAGGGAAGGGGUUGGGAUGGGGACAGGGUGCACAGCAGGGCGGGGUAGGACCCAAACCCCUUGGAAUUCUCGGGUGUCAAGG	-0.212
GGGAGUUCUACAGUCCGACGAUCUGGGAGGUGGAUUUUGUUUAUUUUUUUAGCUCAUUUCCAGGGGUGGGAAUUUUUUUUUAAUAUGUGUCAUUAAUAAAGUUGUUUUUGAAAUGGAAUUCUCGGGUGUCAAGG	1.65
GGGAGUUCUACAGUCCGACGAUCCACAGACAACACGCACCCACACAGACACAGAGGGAAGGGGUUGGGAUGGGGACAGGGUGCACAGCAUGGCGGGGUAGGACCCCAGCCCCUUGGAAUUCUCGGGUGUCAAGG	0.00186

Some of these lines once more (series 3):
Change	relative binding score
E128W	8.84%
W41I	-10.5%
A13R	48.5%
